Results from different studies.
Parts stem from different laboratories: compare values within a part only. “And” joins repeats or separate records; there may be more than shown.
Chain of UniProt Q9NYL2 (whole entry, looked up): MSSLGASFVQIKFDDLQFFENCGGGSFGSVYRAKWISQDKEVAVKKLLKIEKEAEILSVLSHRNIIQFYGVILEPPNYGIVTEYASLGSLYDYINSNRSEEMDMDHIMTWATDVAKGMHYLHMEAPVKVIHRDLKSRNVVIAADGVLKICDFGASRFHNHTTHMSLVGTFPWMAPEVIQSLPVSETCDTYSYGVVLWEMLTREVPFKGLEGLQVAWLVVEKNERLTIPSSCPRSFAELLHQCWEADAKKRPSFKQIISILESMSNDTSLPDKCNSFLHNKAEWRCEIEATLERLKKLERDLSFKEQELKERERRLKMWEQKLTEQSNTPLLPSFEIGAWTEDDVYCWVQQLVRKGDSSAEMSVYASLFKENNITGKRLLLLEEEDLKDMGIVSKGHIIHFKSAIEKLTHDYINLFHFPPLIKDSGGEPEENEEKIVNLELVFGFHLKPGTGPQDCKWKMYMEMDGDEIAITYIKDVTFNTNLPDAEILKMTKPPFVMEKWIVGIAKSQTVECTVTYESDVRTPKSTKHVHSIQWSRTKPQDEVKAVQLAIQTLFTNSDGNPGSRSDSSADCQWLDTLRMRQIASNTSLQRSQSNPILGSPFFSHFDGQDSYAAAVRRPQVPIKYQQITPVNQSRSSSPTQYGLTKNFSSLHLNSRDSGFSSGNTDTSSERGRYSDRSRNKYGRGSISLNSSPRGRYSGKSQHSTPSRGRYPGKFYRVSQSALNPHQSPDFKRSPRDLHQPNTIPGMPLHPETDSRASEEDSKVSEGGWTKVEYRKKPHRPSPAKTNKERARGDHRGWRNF
Chain of UniProt O15146 (whole entry, looked up): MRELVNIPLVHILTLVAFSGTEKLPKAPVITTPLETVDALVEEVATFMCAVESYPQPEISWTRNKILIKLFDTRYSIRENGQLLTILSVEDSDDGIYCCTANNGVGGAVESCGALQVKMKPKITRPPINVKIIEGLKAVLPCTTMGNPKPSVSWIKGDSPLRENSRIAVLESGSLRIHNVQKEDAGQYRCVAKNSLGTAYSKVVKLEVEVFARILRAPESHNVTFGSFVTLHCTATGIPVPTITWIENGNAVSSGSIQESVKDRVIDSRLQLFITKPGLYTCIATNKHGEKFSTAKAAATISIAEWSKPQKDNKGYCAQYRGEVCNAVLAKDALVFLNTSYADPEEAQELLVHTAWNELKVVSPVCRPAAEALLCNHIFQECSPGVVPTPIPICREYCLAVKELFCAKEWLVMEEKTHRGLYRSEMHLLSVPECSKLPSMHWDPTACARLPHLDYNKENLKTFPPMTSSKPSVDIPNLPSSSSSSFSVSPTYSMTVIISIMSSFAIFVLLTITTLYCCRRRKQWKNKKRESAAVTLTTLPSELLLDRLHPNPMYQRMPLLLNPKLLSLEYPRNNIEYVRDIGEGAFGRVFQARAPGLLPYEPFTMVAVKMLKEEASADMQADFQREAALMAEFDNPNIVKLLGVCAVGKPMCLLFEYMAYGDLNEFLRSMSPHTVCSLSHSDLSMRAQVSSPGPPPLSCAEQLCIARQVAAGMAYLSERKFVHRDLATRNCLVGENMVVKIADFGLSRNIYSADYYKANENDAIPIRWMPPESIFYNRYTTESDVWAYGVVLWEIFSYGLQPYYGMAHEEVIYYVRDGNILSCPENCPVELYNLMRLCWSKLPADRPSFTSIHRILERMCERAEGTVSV
Chain of UniProt O60331 (whole entry, looked up): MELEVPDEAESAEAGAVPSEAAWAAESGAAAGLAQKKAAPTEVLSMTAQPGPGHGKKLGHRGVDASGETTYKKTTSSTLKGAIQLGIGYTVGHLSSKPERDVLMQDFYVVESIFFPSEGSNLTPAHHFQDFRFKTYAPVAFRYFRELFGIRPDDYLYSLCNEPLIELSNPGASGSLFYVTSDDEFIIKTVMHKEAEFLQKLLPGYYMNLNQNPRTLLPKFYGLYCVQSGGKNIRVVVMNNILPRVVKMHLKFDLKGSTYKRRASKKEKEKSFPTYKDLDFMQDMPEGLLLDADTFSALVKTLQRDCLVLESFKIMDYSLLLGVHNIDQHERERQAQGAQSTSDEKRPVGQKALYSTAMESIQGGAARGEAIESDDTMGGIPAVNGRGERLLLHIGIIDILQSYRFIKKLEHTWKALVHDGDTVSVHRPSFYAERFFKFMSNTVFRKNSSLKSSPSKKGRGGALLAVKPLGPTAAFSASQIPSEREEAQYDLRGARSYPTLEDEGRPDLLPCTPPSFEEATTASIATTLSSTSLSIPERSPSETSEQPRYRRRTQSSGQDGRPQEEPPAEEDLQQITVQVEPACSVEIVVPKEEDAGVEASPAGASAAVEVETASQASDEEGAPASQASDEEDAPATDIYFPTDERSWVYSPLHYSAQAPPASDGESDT
Chain of UniProt Q06418 (whole entry, looked up): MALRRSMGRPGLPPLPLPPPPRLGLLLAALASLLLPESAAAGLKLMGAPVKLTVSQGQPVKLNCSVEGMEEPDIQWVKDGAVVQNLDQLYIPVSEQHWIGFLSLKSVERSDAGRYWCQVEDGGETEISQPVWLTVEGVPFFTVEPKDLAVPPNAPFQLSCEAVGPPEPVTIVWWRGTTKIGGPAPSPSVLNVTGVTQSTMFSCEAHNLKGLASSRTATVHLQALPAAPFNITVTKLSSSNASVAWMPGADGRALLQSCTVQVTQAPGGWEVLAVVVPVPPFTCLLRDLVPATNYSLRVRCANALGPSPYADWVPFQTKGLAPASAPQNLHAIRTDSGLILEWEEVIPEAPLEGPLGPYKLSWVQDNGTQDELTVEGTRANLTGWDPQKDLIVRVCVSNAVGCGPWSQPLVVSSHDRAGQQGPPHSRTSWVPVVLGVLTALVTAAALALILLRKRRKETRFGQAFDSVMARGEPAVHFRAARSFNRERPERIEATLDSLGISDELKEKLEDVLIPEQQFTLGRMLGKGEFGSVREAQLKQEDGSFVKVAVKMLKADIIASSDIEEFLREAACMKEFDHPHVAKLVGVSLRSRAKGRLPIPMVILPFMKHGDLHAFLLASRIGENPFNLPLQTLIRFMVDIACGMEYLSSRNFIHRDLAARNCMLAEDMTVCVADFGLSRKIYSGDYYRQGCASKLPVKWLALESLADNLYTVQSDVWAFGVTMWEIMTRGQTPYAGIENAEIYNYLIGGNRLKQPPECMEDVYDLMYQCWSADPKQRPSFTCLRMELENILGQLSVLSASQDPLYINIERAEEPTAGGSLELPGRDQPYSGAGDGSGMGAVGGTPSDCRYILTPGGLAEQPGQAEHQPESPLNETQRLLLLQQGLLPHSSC
Chain of UniProt Q13131 (whole entry, looked up): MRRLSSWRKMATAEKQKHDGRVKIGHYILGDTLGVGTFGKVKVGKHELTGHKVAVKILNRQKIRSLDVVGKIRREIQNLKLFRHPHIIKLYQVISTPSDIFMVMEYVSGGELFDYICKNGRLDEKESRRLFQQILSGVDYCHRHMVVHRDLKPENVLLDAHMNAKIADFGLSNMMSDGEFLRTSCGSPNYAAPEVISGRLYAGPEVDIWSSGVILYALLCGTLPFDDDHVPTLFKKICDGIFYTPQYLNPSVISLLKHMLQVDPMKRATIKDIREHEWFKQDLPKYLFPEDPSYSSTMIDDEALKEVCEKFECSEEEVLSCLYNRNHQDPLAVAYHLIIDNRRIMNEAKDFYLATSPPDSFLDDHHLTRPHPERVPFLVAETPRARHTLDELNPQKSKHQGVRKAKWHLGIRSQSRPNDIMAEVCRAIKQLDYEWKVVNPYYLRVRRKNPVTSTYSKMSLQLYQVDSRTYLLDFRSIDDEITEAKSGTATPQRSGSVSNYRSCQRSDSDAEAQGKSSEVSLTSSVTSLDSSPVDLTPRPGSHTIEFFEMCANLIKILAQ
Chain of UniProt P36897 (whole entry, looked up): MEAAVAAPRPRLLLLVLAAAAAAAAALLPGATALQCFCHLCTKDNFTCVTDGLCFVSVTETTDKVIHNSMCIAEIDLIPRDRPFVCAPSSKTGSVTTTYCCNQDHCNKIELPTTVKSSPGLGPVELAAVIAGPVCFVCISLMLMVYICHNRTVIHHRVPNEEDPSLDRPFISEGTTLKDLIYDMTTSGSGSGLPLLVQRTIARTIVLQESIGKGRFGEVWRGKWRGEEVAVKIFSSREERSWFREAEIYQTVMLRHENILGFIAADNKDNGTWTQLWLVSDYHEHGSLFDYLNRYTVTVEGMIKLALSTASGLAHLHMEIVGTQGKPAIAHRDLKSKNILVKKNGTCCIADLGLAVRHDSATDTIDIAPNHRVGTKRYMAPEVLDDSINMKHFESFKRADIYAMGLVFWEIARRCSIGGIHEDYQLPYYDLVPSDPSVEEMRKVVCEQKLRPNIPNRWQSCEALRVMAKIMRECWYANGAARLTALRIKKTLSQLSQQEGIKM
Chain of UniProt P49760 (whole entry, looked up): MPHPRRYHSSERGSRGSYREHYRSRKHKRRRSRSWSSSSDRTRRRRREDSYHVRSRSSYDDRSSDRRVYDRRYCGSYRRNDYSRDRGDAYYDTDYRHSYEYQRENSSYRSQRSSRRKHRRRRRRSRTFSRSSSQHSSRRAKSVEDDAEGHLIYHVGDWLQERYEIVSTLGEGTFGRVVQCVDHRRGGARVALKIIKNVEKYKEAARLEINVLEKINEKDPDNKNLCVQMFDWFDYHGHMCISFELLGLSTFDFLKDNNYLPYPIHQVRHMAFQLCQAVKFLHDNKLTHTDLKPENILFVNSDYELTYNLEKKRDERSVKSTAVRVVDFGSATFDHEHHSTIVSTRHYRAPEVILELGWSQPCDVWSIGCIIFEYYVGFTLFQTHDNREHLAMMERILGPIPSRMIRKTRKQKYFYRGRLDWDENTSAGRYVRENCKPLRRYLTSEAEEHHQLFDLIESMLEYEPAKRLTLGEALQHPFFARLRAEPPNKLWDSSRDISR

Series 1
SMILES: N#Cc1ccc(Nc2ccc3[nH]c(=O)[nH]c3c2)c(Cl)c1
Concentration: 1 µM
target | assay | remaining binding [%]
MYLK3 (Homo sapiens, UniProt Q32MK0) | cell-free assay, competition with immobilised ligand | 93
PIP4K2C (Homo sapiens, UniProt Q8TBX8) | cell-free assay, competition with immobilised ligand | 100
PDGFRA (Homo sapiens, UniProt P16234) | cell-free assay, competition with immobilised ligand | 100
ALK (Homo sapiens, UniProt Q9UM73, L1196M) | cell-free assay, competition with immobilised ligand | 100
DYRK2 (Homo sapiens, UniProt Q92630) | cell-free assay, competition with immobilised ligand | 85
PIP5K1C (Homo sapiens, UniProt O60331) | cell-free assay, competition with immobilised ligand | 67
NTRK3 (Homo sapiens, UniProt Q16288) | cell-free assay, competition with immobilised ligand | 100
CDC42BPG (Homo sapiens, UniProt Q6DT37) | competition binding | 100
STK17A (Homo sapiens, UniProt Q9UEE5) | cell-free assay, competition with immobilised ligand | 94
BRSK2 (Homo sapiens, UniProt Q8IWQ3) | cell-free assay, competition with immobilised ligand | 100
NEK2 (Homo sapiens, UniProt P51955) | cell-free assay, competition with immobilised ligand | 93
EIF2AK1 (Homo sapiens, UniProt Q9BQI3) | cell-free assay, competition with immobilised ligand | 100
MAP3K12 (Homo sapiens, UniProt Q12852) | cell-free assay, competition with immobilised ligand | 100
PRKAA1 (Homo sapiens, UniProt Q13131) | cell-free assay, competition with immobilised ligand | 100
PIK3C2G (Homo sapiens, UniProt O75747) | cell-free assay, competition with immobilised ligand | 95
TESK1 (Homo sapiens, UniProt Q15569) | cell-free assay, competition with immobilised ligand | 100
MAPK1 (Homo sapiens, UniProt P28482) | cell-free assay, competition with immobilised ligand | 100
ZAP70 (Homo sapiens, UniProt P43403) | cell-free assay, competition with immobilised ligand | 90
MARK1 (Homo sapiens, UniProt Q9P0L2) | cell-free assay, competition with immobilised ligand | 90
MAP3K20 (Homo sapiens, UniProt Q9NYL2) | cell-free assay, competition with immobilised ligand | 100
PIK3CA (Homo sapiens, UniProt P42336, I800L) | cell-free assay, competition with immobilised ligand | 77
MAPK8 (Homo sapiens, UniProt P45983) | cell-free assay, competition with immobilised ligand | 98
TGFBR1 (Homo sapiens, UniProt P36897) | cell-free assay, competition with immobilised ligand | 100
TLK2 (Homo sapiens, UniProt Q86UE8) | cell-free assay, competition with immobilised ligand | 96

Series 2
SMILES: CC(C)(C(=O)O)[C@H](NC(=O)Cc1cccc(I)c1)c1ccc2oc(=O)[nH]c2c1
Method: Incucyte 3D growth
Concentration: 30 µM
Direction: higher = more growth
cell line | setting | spheroid area
IPC-298 | 240 h | 3.78e+07 a.u. and 4.43e+07 a.u. and 2.68e+07 a.u. and 3.04e+07 a.u. and 3.24e+07 a.u. and 2.73e+07 a.u.
NCI-H358 | 240 h | 9.28e+06 a.u. and 9.08e+06 a.u. and 8.7e+06 a.u. and 8.58e+06 a.u. and 1.09e+07 a.u. and 7.75e+06 a.u.
MEL-JUSO | 492.52 h | 2.63e+07 a.u. and 5.13e+07 a.u. and 3.01e+07 a.u. and 7.26e+07 a.u. and 2.47e+07 a.u. and 1.86e+07 a.u.
KP-4 | 150 h | 2.4e+07 a.u. and 2.18e+07 a.u. and 2.53e+07 a.u. and 1.68e+07 a.u. and 2.33e+07 a.u. and 2.03e+07 a.u.
A375 | 186.52 h | 1.39e+08 a.u. and 1.21e+08 a.u. and 1.49e+08 a.u. and 1.29e+08 a.u. and 1.37e+08 a.u.
NCI-H1437 | 186 h | 4.33e+07 a.u. and 6.86e+07 a.u. and 3.35e+07 a.u. and 6.53e+07 a.u. and 4.8e+07 a.u. and 3.62e+07 a.u.
PC-9 | 132 h | 9.72e+08 a.u. and 1.04e+09 a.u. and 1.03e+09 a.u. and 9.61e+08 a.u. and 1e+09 a.u. and 1.01e+09 a.u.
MEL-JUSO | 306.52 h | 4.04e+07 a.u. and 2.66e+07 a.u. and 2.23e+07 a.u. and 2.58e+07 a.u. and 2.65e+07 a.u. and 2.8e+07 a.u.
MEL-JUSO | 204.52 h | 2.04e+07 a.u. and 2.07e+07 a.u. and 1.56e+07 a.u. and 1.71e+07 a.u. and 1.64e+07 a.u. and 1.51e+07 a.u.
A375 | 420.52 h | 1.81e+08 a.u. and 1.49e+08 a.u. and 1.65e+08 a.u. and 1.72e+08 a.u. and 1.78e+08 a.u. and 1.59e+08 a.u.
A375 | 84.52 h | 5.11e+07 a.u. and 5.33e+07 a.u. and 4.11e+07 a.u. and 4.97e+07 a.u. and 6.31e+07 a.u. and 4.96e+07 a.u.
IPC-298 | 114 h | 2.67e+07 a.u. and 2.76e+07 a.u. and 3.22e+07 a.u. and 2.14e+07 a.u. and 2.6e+07 a.u. and 2.88e+07 a.u.

Series 3
SMILES: C[C@@H]1CN(c2ccc(-c3cc(C(=O)NCCOCCOCCOCCOCCNC(=O)Cn4cc(-c5[nH]cc(C(=O)N[C@@H](CC(N)=O)c6ccc(F)c(Cl)c6)c5-c5ccc(Cl)cc5F)cn4)ccc3F)cc2NC(=O)c2c[nH]c(=O)cc2C(F)(F)F)C[C@H](C)N1C
Method: ATPlite
cell line | system | setting | scale | viability
MV4-11 |  | 0.0215 µM, 5 days | baseline: DMSO | 108% and 102% and 74.3% and 77.4%
MV4-11 expressing HiBiT-WDR5 | RPMI with 10% FBS | 227 nM, 24 h |  | 119% and 139% and 117%
MV4-11 expressing HiBiT-WDR5 | RPMI with 10% FBS | 2 nM, 24 h |  | 145% and 92.5% and 108%
MV4-11 expressing HiBiT-WDR5 | RPMI with 10% FBS | 34.2 nM, 24 h |  | 100% and 94.2% and 76.2%
MV4-11 |  | 4.64 µM, 5 days | baseline: DMSO | 42.3% and 35.9% and 27.8%
MV4-11 |  | 2.15 µM, 5 days | baseline: DMSO | 53.9% and 33% and 65.3% and 54.6%
MV4-11 |  | 0.1 µM, 5 days | baseline: DMSO | 64.6% and 85.3% and 78.1%
MV4-11 |  | 0.464 µM, 5 days | baseline: DMSO | 77.2% and 97.9%
MV4-11 expressing HiBiT-WDR5 | RPMI with 10% FBS | 5.15 nM, 24 h |  | 80.7% and 134% and 104%

Series 4
SMILES: O=C(O)/C=C/c1cc(Br)c(Br)c(Br)c1Br
Effect on: enzyme activity
Action: inhibitor
Concentration: 0.5 µM
Baseline: control
target | remaining activity
MAP3K20 (Homo sapiens, UniProt Q9NYL2) | 89.4%
CSNK1E (Homo sapiens, UniProt P49674) | 83.6%
FLT1 (Homo sapiens, UniProt P17948) | 87.5%
TYRO3 (Homo sapiens, UniProt Q06418) | 93.3%
PRKCQ (Homo sapiens, UniProt Q04759) | 89.6%
EPHA2 (Homo sapiens, UniProt P29317) | 97.9%
TEC (Homo sapiens, UniProt P42680) | 107%
MUSK (Homo sapiens, UniProt O15146) | 53.6%
Cyclin-dependent kinase 2, with cyclin E (CDK2, Homo sapiens, UniProt P24941) | 89.4%
SIK2 (Homo sapiens, UniProt Q9H0K1) | 107%
CAMK1 (Homo sapiens, UniProt Q14012) | 105%
JAK1 (Homo sapiens, UniProt P23458) | 98.8%
CSNK1D (Homo sapiens, UniProt P48730) | 59.1%
SRPK1 (Homo sapiens, UniProt Q96SB4) | 79.3%
CLK2 (Homo sapiens, UniProt P49760) | 85%
IGF1R (Homo sapiens, UniProt P08069) | 96%
RPS6KA3 (Homo sapiens, UniProt P51812) | 41.2%
CLK1 (Homo sapiens, UniProt P49759) | 98.5%
SGK2 (Homo sapiens, UniProt Q9HBY8) | 59.7%
PAK1 (Homo sapiens, UniProt Q13153) | 105%
